Measured values gathered from unrelated publications.
Each numbered part is a random draw from the data of one study; scales do not carry over between parts. Positions count from the first letter of the parent shown.

Series 1 — technique: protein-binding microarray; molecule type: double-stranded DNA, one strand shown; sample: in vitro; concentration: 2540 nM top; setting: 60-bp whole probe; together with: salmon DNA 0.4 mg/ml; reference: random background probes; reading: higher = stronger binding; shared flanks, not repeated: GCCTAGCAC … GTCTTGATTCGCTTGACGCTGCTG
Target: Interferon regulatory factor 3, full length, phosphomimetic (IRF3, Homo sapiens, UniProt Q14653, residues 1-427, S386D/S396D/S398D/S402D/T404D/S405D)
Target sequence (chain): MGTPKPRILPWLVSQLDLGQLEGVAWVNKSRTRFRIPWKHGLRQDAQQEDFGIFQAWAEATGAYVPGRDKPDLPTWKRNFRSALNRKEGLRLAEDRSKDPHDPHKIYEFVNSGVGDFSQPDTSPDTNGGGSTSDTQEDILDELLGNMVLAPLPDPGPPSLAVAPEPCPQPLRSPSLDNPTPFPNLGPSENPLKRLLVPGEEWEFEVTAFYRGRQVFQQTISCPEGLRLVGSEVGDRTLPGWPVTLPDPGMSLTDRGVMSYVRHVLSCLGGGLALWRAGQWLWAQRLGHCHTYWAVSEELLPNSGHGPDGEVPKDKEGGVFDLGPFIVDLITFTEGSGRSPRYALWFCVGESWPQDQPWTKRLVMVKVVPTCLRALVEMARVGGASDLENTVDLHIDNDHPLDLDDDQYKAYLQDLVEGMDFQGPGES
Strand	fitted relative affinity [z-score]
GACGGACTGGGTATCGGGTCGTGCTAG	0.0175
TTAGGTTTCCCTCTCCTTTAGTGCTAG	7.89
TTAGGTTTAGGTCTCGGTTAGTGCTAG	0.347
TACGATCTCAGACTGGAGACGTGCTAG	0.306
TTTTTTTTTTTTTTTACTTCGTGCTAG	1.69
GACGATATCGGGTTTCGAGCCGTGCTA	0.67
TCATGTTTGGTGTCTTTTACTGTGCTA	0.133
TCAAATTCCTGAAATCTCACTGTGCTA	-0.00842
TTAAATATCAGTTTCGATTAGTGCTAG	5.5
ATTTTTTTCTAATTGAAATCGTGCTAG	1.51
CGGGGGTGGGGAGAGCCCCTGTGCTAG	-0.433
GACTTTTTACCTGTGGTGTAGTGCTAG	0.86
TTAGGTGTCCTACTGCTTTAGTGCTAG	1.07
TCAACTTTCTGAATGCTACTGTGCTAG	2.31
GACGGTATCCTTATCCTTACGTGCTAG	5.19
CTTTGCTCATTTTTCAGGGAGTGCTAG	1.66
TTACGTTTCGACTTTCGGTTAGTGCTA	3.52
GACGATCTAAGTCTCGAGACGTGCTAG	0.149
TCATGTGTATATATAATACTGTGCTAG	0.0696

Series 2 — target: CCND2, cyclin fold, Cln2 fusion (human); technique: yeast growth competition, sequencing; sample: yeast; setting: weak parent motif; reference: not given; reading: higher = stronger binding
Parent: WEE1 docking peptide (human); HKTFRKLRLFDTP
Change	normalised enrichment score
F10Y	-0.233
K2D	0.238
T3F	-0.24
T3M	-0.324
R5I	0.0615
T3H	-0.132
L7R	-0.0692
R8K	0.349
T12S	0.253
F10M	0.265
L9A	0.688
K6C	0.146
H1Q	0.239
P13N	0.7

Series 3 — target: CREBRF, bZIP domain (human); technique: DHFR protein complementation; sample: yeast; reference: wild-type JUN-FOS pair; reading: higher = stronger binding
Setting: single substitutions, most at no-binding floor
Parent: JUN, bZIP domain (human); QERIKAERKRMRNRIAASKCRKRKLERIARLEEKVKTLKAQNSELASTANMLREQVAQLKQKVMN; partner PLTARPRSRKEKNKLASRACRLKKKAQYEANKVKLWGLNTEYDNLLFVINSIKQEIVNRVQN
Change	binding fitness [natural log]
L31D	-1.38
Q55K	-1.28
A29I	-1.26
A57T	-1.27
T48Q	-1.35
S43M	-1.4
A49P	-1.5

Other studies, line by line
Substance	target	assay	system	conditions	how to read	measurement	value
PhoQ, residues 284 288 289 292 302 303 ASHLAV	PhoP, residues 12 14 15 18 19 GHCSL (Escherichia coli, UniProt P23836)	Sort-seq, refers to: YFP reporter	E. coli	PhoQ-PhoP variant library, together with: 10 µM Mg2+	reference: high Mg2+ state, higher = stronger signaling	fold induction	11.4

Repeated from above (series 1):
Strand	fitted relative affinity [z-score]
CGGGGGTGGGGAGAGCCCCTGTGCTAG	-0.433
GACTTTTTACCTGTGGTGTAGTGCTAG	0.86
TTAGGTGTCCTACTGCTTTAGTGCTAG	1.07
TCAACTTTCTGAATGCTACTGTGCTAG	2.31
GACGGTATCCTTATCCTTACGTGCTAG	5.19
CTTTGCTCATTTTTCAGGGAGTGCTAG	1.66
